Assay results collected from several papers.
Several values in a cell are separate wells, animals, samples, runs or records. ± gives the spread as reported.
BCHE: Cholinesterase (BCHE, Homo sapiens, UniProt P06276)
UniProt P06276, sequence (whole entry, looked up): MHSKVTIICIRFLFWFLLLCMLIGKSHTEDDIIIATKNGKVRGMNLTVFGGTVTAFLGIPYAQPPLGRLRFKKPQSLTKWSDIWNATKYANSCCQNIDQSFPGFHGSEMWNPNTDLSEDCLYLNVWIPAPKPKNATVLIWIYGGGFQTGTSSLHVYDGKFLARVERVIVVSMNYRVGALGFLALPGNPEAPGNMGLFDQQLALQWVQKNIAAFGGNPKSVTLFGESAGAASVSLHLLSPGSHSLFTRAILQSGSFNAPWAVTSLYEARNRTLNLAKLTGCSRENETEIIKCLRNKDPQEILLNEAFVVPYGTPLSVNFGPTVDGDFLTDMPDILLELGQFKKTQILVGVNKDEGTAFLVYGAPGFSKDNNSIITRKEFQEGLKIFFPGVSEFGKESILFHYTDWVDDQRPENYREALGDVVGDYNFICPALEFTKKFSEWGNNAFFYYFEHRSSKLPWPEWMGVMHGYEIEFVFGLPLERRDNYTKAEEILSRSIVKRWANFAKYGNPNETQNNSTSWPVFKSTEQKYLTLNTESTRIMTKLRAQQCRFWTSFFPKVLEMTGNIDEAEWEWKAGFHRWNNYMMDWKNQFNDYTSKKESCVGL

For `C=CCc1ccccc1OCC(O)CNC1(C)CCC(C(C)(C)NC(=O)CBr)CC1` (stereo not drawn), the IC50 was 0.794 µM (Plasmodium falciparum; W2).
`Nc1ncc(-c2nc(N3CCOCC3)nc(N3CCOCC3)n2)c(C(F)F)n1` gave a GI50 of 0.135 µM (LS174T; 72 h).
The EC50 of `CC(=O)c1c(Nc2c(C)cc(C)cc2C)oc(C)cc1=O` is reported as 1.48 ± 0.7 µM (Plasmodium falciparum; parasite growth, SYBR Green; 3D7 wild type; 72 h).
`O=C(NC1C2CC3CC(C2)CC1C3)c1cc(-c2ccncc2F)c[nH]1` (stereo not drawn) has an IC50 of 45.7 µg/mL (Vero; 48 h).
For `CC(=O)c1cc(O)c2ccccc2c1O`, the EC50 was 1.4 µM (Zika virus; viral replication, plaque reduction; Vero, Venus reporter).
For `CCOC(=O)N1CCC(=C2c3ccc(Cl)cc3CCc3cccnc32)CC1`, the IC50 was 5.01 µM (Plasmodium falciparum; W2).
For `CC[C@H](C)[C@@H]1NC(=O)[C@@H]2CCCN2C(=O)[C@H](CC(C)C)NC(=O)[C@H](CC(C)C)NC(=O)CNC(=O)[C@@H](NC(=O)[C@@H](NC(=O)[C@H](CC(=O)O)NC(=O)CNC(=O)[C@@H](NC(=O)[C@H](C)NC(=O)CNC(=O)[C@H](CCCCN)NC(=O)[C@H](CC(C)C)NC(=O)[C@H](CC(C)C)NC(=O)[C@H](CCCCN)NC(=O)CNC(=O)[C@@H](NC(=O)[C@@H](N)CC(C)C)C(C)C)C(C)C)C(C)C)CSSC[C@@H](C(=O)O)NC1=O`, “log2 fold change” read -2.36 (RNA-seq, refers to: Snx20; mouse, traumatic brain injury model, frontal cortex and hippocampus; dose not given; baseline: TBI alone).
Under “corridor crossing time”, `C#CCN(C)[C@H](C)Cc1ccccc1` is recorded as 5.93 s and 4.8 s and 3.59 s and 5.73 s and 5.85 s and 5.58 s and 5.04 s (footprint test; MPTP-induced Parkinson's disease mouse model; 10 mg/kg, mean of three trials).
`Cn1cccc1/C=N/N1CCN(Cc2ccccc2)CC1` gave an IC50 of over 100 µM (Gag-Pol polyprotein, integrase (gag-pol, Human immunodeficiency virus 1, UniProt P12497); 3'-processing activity, inhibitor; wild-type integrase).
`CCN(CC)[C@@H]1CCc2c(F)ccc(O)c2C1` has an IC50 of 0.316 µM (Plasmodium falciparum; GB4).
For `CC(C)C(NC(=O)Cc1cccc2ccccc12)C(=O)Nc1cccc(C#N)c1` (stereo not drawn), the EC50 ratio was 29 (Plasmodium falciparum; parasite growth, SYBR Green; 72 h; baseline: 3D7-E182D over 3D7).
`CC(C)[C@H]1NC(=O)[C@@H]([C@H](C)O)NC(=O)[C@H](CO)NC(=O)[C@@H](CCCNC(=N)N)NC(=O)CNC(=O)[C@H](Cc2ccccc2)NC(=O)[C@H]([C@@H](C)O)NC1=O` gave an IC50 of over 16 µg/mL (Naegleria fowleri; trophozoites).
With `Nc1ccn(C[C@@H](CO)OCP(=O)(O)O)c(=O)n1` the infection was 80% and 70% and 57.8% (Fowlpox virus; viral infection; CEF; 50 µM; baseline: untreated).
With `COc1nc(NCC(C)C)nc(Oc2ccc(=O)n(Cc3ccccc3)n2)n1` the EC50 was 0.386 ± 0.091 µM (Plasmodium falciparum; parasite growth, SYBR Green; 3D7 wild type; 72 h).
`C#CCN(C)[C@H](C)Cc1ccccc1` gave a step-through latency of 17.8 ± 4.12 s (passive avoidance, acquisition; APP/PS1 mice; oral, 10 mg/kg, 672 h, 4 weeks dosing).
`c1ccc(C(NCCNC(c2ccccc2)c2ccccc2)c2ccccc2)cc1` gave an inhibition of -2% (GABAB receptor, rat; binding; 10 µM, Eurofins selectivity panel).
Under “pathway fold enrichment”, `Nc1ncnc2c1ncn2[C@@H]1O[C@@H]2COP(=O)(O)O[C@H]3[C@@H](O)[C@H](n4cnc5c(=O)[nH]cnc54)O[C@@H]3COP(=O)(O)O[C@H]2[C@H]1O` is recorded as 3.55 (HFF-1; RNA sequencing Reactome analysis, refers to: Reactome R-HSA-3781865 diseases of glycosylation; with: West Nile virus infection; baseline: West Nile virus infected cells, downregulated pathway).
For `COc1ccc(OC)c(/C=N/NC(=O)c2n[nH]c3c2CCC3)c1`, the IC50 was over 50 µM (Gag-Pol polyprotein, integrase with LEDGF/p75 (gag-pol, Human immunodeficiency virus 1, UniProt P12497); LEDGF/p75-integrase interaction, inhibitor, AlphaScreen).
With `Nc1c2c(nc3c1CCC3)CCCC2` the IC50 was 0.25 ± 0.05 µM (BCHE; inhibitor).
`Cc1ccc2c(c1)CC[C@@](CCN(C)CCCc1nc3ccccc3[nH]1)(OC(=O)C1CC1)[C@H]2C(C)C` has an IC50 of 3.98 µM (Plasmodium falciparum; HB3).
The OD600 of `OC(Cn1cncn1)(Cn1cncn1)c1ccc(F)cc1F` is reported as 0.05 and 0.051 (Saccharomyces cerevisiae; cell growth; Pdr5 deleted, empty vector; 2^-1 µg/mL).
`COc1cc(CCC[P+](c2ccccc2)(c2ccccc2)c2ccccc2)c(OC)c2c1OCO2.[I-]` has an LC50 of over -4 log M (SK-OV-3; SRB).
With `NC(=NCc1ccccc1)NC(=O)c1nc(Cl)c(N)nc1N` the IC50 was 0.794 µM (Plasmodium falciparum; D10).
`N=C(N)c1ccc(OCc2cc(Br)cc(COc3ccc(C(=N)N)cc3)c2)cc1`: “MIC of compound in combination” 6.25 µg/mL (Escherichia coli; checkerboard; mcr-3 polymyxin-resistant; concentration not given, with: rifampicin).
`COc1c(CCC[P+](c2ccccc2)(c2ccccc2)c2ccccc2)cc2c(c1OC)OCO2.[I-]` gave a TGI of -4.83 log M (SR; SRB).
With `CC(C)C[C@@H]1NC(=O)CNC(=O)[C@@H](Cc2ccccc2)NC(=O)[C@H](CCCCN)NC(=O)[C@@H](CCCN)NC(=O)[C@@H](C(C)C)NC1=O` the IC90 was over 16 µg/mL (Acanthamoeba castellanii; trophozoites).
With `COc1ccc2c(c1)[nH]c1c(C)nccc12` the methylation reduction was 2.9% (DU-145; bisulfite pyrosequencing, refers to: RASSF1A promoter CpG site 19; concentration not given; baseline: vehicle).
`COC(=O)[C@H]1[C@H]2C[C@@H]3c4[nH]c5cc(OC)ccc5c4CCN3C[C@H]2C[C@@H](OC(=O)c2cc(OC)c(OC)c(OC)c2)[C@@H]1OC` has an IC50 of 2 µM (Plasmodium falciparum; GB4).
The EC50 of `Cc1cc(NC(=O)c2cc(S(=O)(=O)N3CCCCC3)ccc2C)no1` is reported as 2.88 ± 0.31 µM (Plasmodium falciparum; parasite growth, SYBR Green; 3D7 DHODH E182D; 72 h).
For `O[C@@](Cc1ncc(CC2(C(F)(F)F)CC2)[nH]1)(c1ccc(-n2cccn2)cc1)C(F)(F)F`, the IC50 was 4.34 ± 0.5 µM (BCHE; inhibitor).
`Cc1sc(CNCCCNc2cc(=O)c3ccccc3[nH]2)c(I)c1C` gave an EC50 of under 0.01 µM (Plasmodium falciparum; parasite growth, SYBR Green; 3D7 wild type; 72 h).
With `CC(C)[C@@H]1NC(=O)[C@@H](CCCCN)NC(=O)[C@H](CCCN)NC(=O)[C@@H](CC(=O)O)NC(=O)[C@H](C)NC(=O)[C@H](Cc2c[nH]c3ccccc23)NC(=O)[C@@H](Cc2ccccc2)NC1=O` the IC50 was over 16 µg/mL (Naegleria fowleri; trophozoites).
`CCCOc1ccccc1-c1nc2sc3c(c2c(=O)[nH]1)CCN(C)C3` has an EC50 of over 12.5 µM (Plasmodium falciparum; parasite growth, SYBR Green; 3D7 DHODH E182D; 72 h).
With `O=C(NC1CCCCCCC1)c1cc(-c2ccc(F)cc2)c[nH]1` the IC50 was 36.8 µg/mL (Vero; 48 h).
With `COc1ccc(-n2ccnc2SCC(=O)Nc2cccc(C(F)(F)F)c2)c(OC)c1` the EC50 was 1.57 ± 0.72 µM (Plasmodium falciparum; parasite growth).
With `CCCN(CCC)[C@H]1CCc2c(F)ccc(O)c2C1` the IC50 was 1.58 µM (Plasmodium falciparum; 3D7).
The kinact/KI of `NC(=O)c1cc[n+](CC2=C(C(=O)O)N3C(=O)[C@@H](NC(=O)[C@@H](c4ccccc4)S(=O)(=O)[O-])[C@H]3SC2)cc1` is reported as 3300 ± 250 M⁻¹ s⁻¹ (PBP3 Streptococcus pneumoniae; Bocillin-FL competition; live Streptococcus pneumoniae cells; 30 min, with: Bocillin-FL 600 nM).
`CCCCN1[C@@H]2CC[C@H]1C[C@@H](OC(c1ccc(F)cc1)c1ccc(F)cc1)C2` has an IC50 of 3.16 µM (Plasmodium falciparum; D10).
With `CC(C)C[C@H]1NC(=O)[C@H]([C@@H](C)O)NC(=O)[C@@H](CCCN)NC(=O)[C@H](CCCNC(=N)N)NC(=O)[C@@H](Cc2ccccc2)NC1=O` the IC50 was 12.1 µg/mL (Acanthamoeba castellanii; trophozoites).

Excerpt of the above:
`COC(=O)[C@H]1[C@H]2C[C@@H]3c4[nH]c5cc(OC)ccc5c4CCN3C[C@H]2C[C@@H](OC(=O)c2cc(OC)c(OC)c(OC)c2)[C@@H]1OC` has an IC50 of 2 µM (Plasmodium falciparum; GB4).
The EC50 of `Cc1cc(NC(=O)c2cc(S(=O)(=O)N3CCCCC3)ccc2C)no1` is reported as 2.88 ± 0.31 µM (Plasmodium falciparum; parasite growth, SYBR Green; 3D7 DHODH E182D; 72 h).
For `O[C@@](Cc1ncc(CC2(C(F)(F)F)CC2)[nH]1)(c1ccc(-n2cccn2)cc1)C(F)(F)F`, the IC50 was 4.34 ± 0.5 µM (BCHE; inhibitor).
`Cc1sc(CNCCCNc2cc(=O)c3ccccc3[nH]2)c(I)c1C` gave an EC50 of under 0.01 µM (Plasmodium falciparum; parasite growth, SYBR Green; 3D7 wild type; 72 h).
With `CC(C)[C@@H]1NC(=O)[C@@H](CCCCN)NC(=O)[C@H](CCCN)NC(=O)[C@@H](CC(=O)O)NC(=O)[C@H](C)NC(=O)[C@H](Cc2c[nH]c3ccccc23)NC(=O)[C@@H](Cc2ccccc2)NC1=O` the IC50 was over 16 µg/mL (Naegleria fowleri; trophozoites).
